Measured values gathered from unrelated publications.
Numbered parts are unrelated; each lists some results of a single study. Substitutions count along the parent as printed.

Block 1 — technique: protein binding microarray; molecule type: double-stranded DNA, one strand shown; sample: in vitro; concentration: not given; baseline: not given; reading: higher = stronger binding
Target: Histone acetyltransferase KAT6A, both winged helices, GST fusion (KAT6A, Homo sapiens, UniProt Q92794, residues 1-181)
Notes: 8-mer, flanks averaged, mean of 2 arrays, mostly near background
Target sequence (chain): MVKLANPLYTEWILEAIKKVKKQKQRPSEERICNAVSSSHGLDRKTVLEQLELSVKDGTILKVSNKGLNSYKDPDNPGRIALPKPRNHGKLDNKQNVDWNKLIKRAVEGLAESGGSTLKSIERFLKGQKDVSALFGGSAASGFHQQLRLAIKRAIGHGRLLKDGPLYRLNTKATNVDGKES
Oligonucleotide	E-score
AACGCGTG	0.347
CAACTGAC	-0.0428
CTACGGGC	0.209
CAGCTTTA	-0.248
AGCACACT	0.0144
CGACTTTC	0.116
CCCGCACC	0.161
AAGGGCTC	-0.111
AGAACAAG	-0.196
CAATAGAC	-0.105
ACTGAGGG	-0.216
TGATCGCA	0.0971
AACCACGA	-0.0447
AGCTCTAA	-0.119
ATAAGTCA	-0.114
CAGGATCA	-0.159
AACGCAAA	0.149
CATGCCCG	0.285
AATAGAGG	-0.0637
CAGCTTCG	-0.119
ATTAGATG	-0.107
ACGCCAGA	0.0121
CCACATAC	-0.152

Block 2 — target: CRIPT, C-terminal peptide; technique: DHFR complementation, deep sequencing; sample: yeast; baseline: wild type; reading: higher = weaker binding
Notes: single substitutions, model-inferred values
Starting sequence: ERBIN, PDZ domain 1 (human); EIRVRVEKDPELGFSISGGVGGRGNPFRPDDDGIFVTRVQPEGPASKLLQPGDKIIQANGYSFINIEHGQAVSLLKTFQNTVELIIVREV; partner TKNYKQTSV
Variant	binding free energy change [kcal/mol]
E7A	-0.0906
V36H	0.906
D53F	0.335
G22R	0.493
I86L	0.00102
F27C	0.731
G33L	1.25
V6Q	0.519
T77K	0.0331
D9E	0.177
I56N	0.208
A45L	1.19
F35A	1.03
G21R	0.0835
L12Y	0.272
Q50E	0.0116
K76R	-0.254
F78Q	0.0547
R5H	0.0982
F63S	0.796

Block 3 — technique: universal PBM; molecule type: double-stranded DNA, one strand shown; sample: in vitro; concentration: not given; reading: higher = stronger binding
Target: Sal-like protein 4, full length isoform B (SALL4, Homo sapiens, UniProt Q9UJQ4-2, residues 1-616)
Notes: 8-mer, flanks averaged, mean of replicates
Construct (chain): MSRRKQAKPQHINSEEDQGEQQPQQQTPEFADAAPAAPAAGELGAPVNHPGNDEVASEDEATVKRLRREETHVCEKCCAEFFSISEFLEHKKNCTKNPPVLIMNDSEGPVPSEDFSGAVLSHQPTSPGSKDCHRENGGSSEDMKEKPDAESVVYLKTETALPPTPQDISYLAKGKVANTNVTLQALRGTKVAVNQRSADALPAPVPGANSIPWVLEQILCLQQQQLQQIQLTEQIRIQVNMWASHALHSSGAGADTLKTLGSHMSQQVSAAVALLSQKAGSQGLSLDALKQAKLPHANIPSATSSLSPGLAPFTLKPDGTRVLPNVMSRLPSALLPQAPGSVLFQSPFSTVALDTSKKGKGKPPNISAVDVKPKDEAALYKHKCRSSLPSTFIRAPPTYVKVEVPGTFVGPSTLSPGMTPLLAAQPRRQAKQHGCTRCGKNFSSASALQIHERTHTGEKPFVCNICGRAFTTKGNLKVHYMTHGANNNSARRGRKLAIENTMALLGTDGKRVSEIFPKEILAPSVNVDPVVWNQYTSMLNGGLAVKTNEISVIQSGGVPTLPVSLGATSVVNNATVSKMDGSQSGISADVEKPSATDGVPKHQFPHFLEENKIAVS
Oligonucleotide	E-score
CAACATCA	0.176
TACATGCA	0.16
CGACACCG	-0.299
GTGCTGAA	-0.0832
ATGGAGCC	-0.105
TGCTTGAA	0.112
CTAACTCA	-0.00691
ATCACTTA	0.231
CGCCGACA	-0.189
ATCTAGGC	-0.0763
AACAGGTC	-0.11
ATAAGAAT	0.342
AGAAAACC	-0.0192
AGAAGTCA	0.127
GCTGGGCA	-0.179
AACCAAGG	0.0538
AGACCTAG	-0.101
CTAGAAAA	0.202
ATCGATAG	0.159
AAGTGCCA	-0.0208
AATCTAGT	0.167

Block 4 — technique: RNA Bind-n-Seq; molecule type: RNA; sample: in vitro; concentration: 20 nM; notes: 6-mer, flanks averaged, single round; together with: 150 mM KCl; baseline: input library; reading: higher = stronger binding
Target: TAR DNA-binding protein 43, full length, His tag (TARDBP, Homo sapiens, UniProt Q13148, residues 1-414)
Oligonucleotide	6-mer enrichment (R)
AGCACA	0.717
UUCGCU	0.556
UGCUAG	0.878
CAUGGU	0.825
GCCGAC	0.929
AUGCUU	0.653
GAUGGA	1.46
UGCGGG	4
AGGUAG	1.46
GUGAGC	1.39
UAUCCA	0.567
ACUCUU	0.566
CAGCCA	0.7
UUCCAA	0.577
GGUGCC	1.38
CCGUAG	0.793
AUGUGA	0.935
CAAUGC	0.666
GGCGUG	3.29
AAUUCA	0.592
GGUACU	0.877
AGGAAU	0.823
ACCAUG	0.702
CAUGAC	0.667
ACUCUG	0.624

Block 5 — target: CCNB2, cyclin fold, Cln2 fusion (human); technique: yeast growth competition, sequencing; sample: yeast; notes: weak parent motif; baseline: not given; reading: higher = stronger binding
Starting sequence: PKN2 docking peptide (human); VSAVRKLDFSDTM; partner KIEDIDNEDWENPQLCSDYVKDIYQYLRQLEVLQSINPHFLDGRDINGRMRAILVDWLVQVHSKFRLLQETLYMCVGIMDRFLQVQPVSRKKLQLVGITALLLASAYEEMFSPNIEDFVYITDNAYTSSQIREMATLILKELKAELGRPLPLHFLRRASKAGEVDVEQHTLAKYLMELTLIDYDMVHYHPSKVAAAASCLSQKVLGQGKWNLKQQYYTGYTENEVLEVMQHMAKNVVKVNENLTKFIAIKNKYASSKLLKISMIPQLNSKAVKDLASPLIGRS
Variant	normalised enrichment score
VSAVRKVDFSDTM [L7V]	-0.149
VSAVRKLDESDTM [F9E]	-0.0521
VQAVRKLDFSDTM [S2Q]	0.465
VHAVRKLDFSDTM [S2H]	0.141
VSAVRKFDFSDTM [L7F]	-0.153
VSAVRQLDFSDTM [K6Q]	0.318
VSAVRKLDFSFTM [D11F]	-0.0864
VSAVRKLDFSWTM [D11W]	-0.128
VSAVVKLDFSDTM [R5V]	0.0385
VSAVRKLDFSDAM [T12A]	1.15
VSNVRKLDFSDTM [A3N]	0.113
VSAVRKLDFRDTM [S10R]	0.262
VSAVRKLDFSDYM [T12Y]	0.733
VSAYRKLDFSDTM [V4Y]	0.215
VSAVRKLDFSDFM [T12F]	0.904
VSAVRYLDFSDTM [K6Y]	0.0972
VSAVRKLDFHDTM [S10H]	0.119
VSAVRALDFSDTM [K6A]	0.204

Block 6 — technique: EMSA with sequencing; molecule type: double-stranded DNA, one strand shown; sample: in vitro; concentration: 10 and 20 nM; baseline: negative control set to 0; reading: higher = stronger binding
Target: Hepatocyte nuclear factor 3-alpha (Foxa1, Mus musculus, UniProt P35582, residues 1-468, full length assumed)
Notes: whole designed probe, mean of two concentrations, ends assumed
Constant ends, left off below: GTGAGCGGTGCCCATTGATGGGGAAC … TTTCACTGGGATCGTGGGGAC
Residues (chain): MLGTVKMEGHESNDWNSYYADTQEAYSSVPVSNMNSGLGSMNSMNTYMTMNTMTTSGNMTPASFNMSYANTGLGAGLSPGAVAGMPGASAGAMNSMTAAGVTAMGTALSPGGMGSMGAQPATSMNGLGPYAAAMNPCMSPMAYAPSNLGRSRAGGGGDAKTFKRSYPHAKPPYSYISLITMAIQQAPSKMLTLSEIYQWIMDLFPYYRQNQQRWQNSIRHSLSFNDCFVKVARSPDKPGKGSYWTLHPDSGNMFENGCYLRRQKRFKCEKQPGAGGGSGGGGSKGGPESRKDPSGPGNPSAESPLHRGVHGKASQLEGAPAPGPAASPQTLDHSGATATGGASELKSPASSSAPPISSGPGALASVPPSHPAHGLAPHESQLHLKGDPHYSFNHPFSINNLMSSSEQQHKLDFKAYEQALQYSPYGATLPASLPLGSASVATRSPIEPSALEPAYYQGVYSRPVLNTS
Oligonucleotide	normalised bound fraction
ATCTTCCCCCTCTTCCTTGCCCCACCAGCTCACCTACGGGGGTTATTTGCAGATAGGAAAATAAATAAAGCCGGCATTCGTTAACGCAGTTCTGGCGCAAACTGCTGTTTGCTCTGCATCTAACATGGTCCTTACGCGAGGCGTGGCTCCGGGAGAGCAAAGCACCGTGTCAGGCGCATGATCCGGGCTCGCC	0.358 ratio
ATCCACGAACCTGGCCCTGTCTGGTAACCACAGTGAACCATCGCAAGATACAGCACTATGTGCCCAGTTGGGCTGGTAATGTCACACAAATGTGTCAACACTGGCACATAATGACTCACACGGAAGTGTACTTGTTTTTGGAGAGGGACTAGACCTTCATCCTTGAGGTGAAGAAGATTTTCTCTCCAGGGTG	0.0657 ratio
TAACCGGAGCGTGCACACCCGCCTGCGAGGCTGACCCGAGCGCGTCCCACCCAAGGTCGCCCAGCCCCGCGGGCGTTTACTTTTCAAAGGTCGAGAGTACACAGTCTGAGCCGGAGCTGCCCCTTCACTTCTGGAGCCTCGCCCAACTTCTCACCCTCGGCTCGCCCGCCGGCGCAGCCCCTGGGAGTTCCGT	0.0324 ratio
GATGTTAGCAATCAAAATACTTTTCAAAACATCTGAGTCTACAGAGGCTGATTTGAGCACATCCGGAGAATTGGGCTCCAAAAATATTAAAAGTAATCTGGGACATAAATTGTATGGATATATTATTCTAAATATTCCCATCTTTTCTCTGTTGCAAGTTTGTGAATGTGGGTGGAATGGGCTTATTAATGGA	-0.0305 ratio
GGGACAGATTACTCTCTGTACAGAGTAAGCCCCAGGGACTTTTCTGGTTGCAAAAGTAATCCTGGTACTTTCTGGATTTTCACTAGATTAAAGTAATCTAGAACAATATAACAGGCAAACTCCTTAAGTTAGACATCACTTACACATATCATAAGAGGAAAATAATTTATAAATGTTCCCAAATTTTCCTCCA	-0.0643 ratio
ATTTCCCCCAGCCAGTTTTAAATGTGTTATCTGAGCAAGCAAAACCTAAGAATTTCGGTCTTTAAGGACCAGAAATCTGGGACCCAGGCCAAAGTAAACATAGTGGCAATGTATTGCTAAACCCAAATGCAACATTGCTAACCAGTTGCTCAGATGTTCTCACAAAGTAATATTTTCTAACAGTTAGTGATTC	0.385 ratio
TGATGATACGTTATAGCATTTCTCTGCTCTGTAAGAGAGGCACCAGGGTCGTGTGCTGGGTCTGGGGTTTGTCCATTCCACATCCGGTGCTGCTGTTGACTCTGGTGTCGGCCGCTGGTGAGCTGGCTGTAGCTGGTCACCTCTGGGTGGTTTCTGGGGCGGTCGCAGGCTGACTAACACACCAAAGGTCAGC	-0.00374 ratio
TGCCACGGACGTGCAGCCGTTAAAATATTAATGTCTGGCATGTGGCAAACATTTAAAATATGCTGAGACTTGGGAGCTGTTGAGCTGGGCCTAGATGACACACCGCCTCACCTGGGTGTAGATTGCTATGTAAATGCCAAGGATTCCTCCCTGAAGCTGGAACCTGCACTCCTCTTCTCACCCCTCATTTCCT	-0.0256 ratio

Mixed results
Molecule	target	assay	system	setting	scale	quantity	result
PhoQ, residues 284 288 289 292 302 303 SSCCRF	PhoP, residues 12 14 15 18 19 LHATL (Escherichia coli, UniProt P23836)	Sort-seq, measured: YFP reporter	E. coli	PhoQ-PhoP variant library, together with: 10 µM Mg2+	baseline: high Mg2+ state, higher = stronger signaling	fold induction	2.65
